Experimental data from different studies.
Compare with care: the assays were run in different laboratories. Numbers after ± are the reported error.

Cc1cc(Nc2ccc(S(F)(F)(F)(F)F)cc2)n2nc(C(C)(F)F)nc2n1 gave a terminal t1/2 of 3.75 to 4.79 days (malaria patients, plasma; oral, 250 to 800 mg, single dose).
With CCc1ccc(Cc2ccc3c(c2)[C@]2(OC3)O[C@H](CO)[C@@H](O)[C@H](O)[C@H]2O)cc1 the tissue/plasma ratio was 848 ± 116 (Wistar rat, male, kidney; oral, dose not given, 1 h; relative to: kidney over plasma concentration).
Cn1cc(-c2ccc3nnc(Sc4ccc5ncccc5c4)n3n2)cn1 gave a CLint of 26.9 ± 4.35 mL/min/kg (cynomolgus monkey male, hepatic S9; 1 µM, pH 7.4, added: without NADPH).
The AUC(0-48 h) of Cc1ccc(-c2ncc(Cl)cc2-c2ccc(S(C)(=O)=O)cc2)cn1 is reported as 2900 ng·h/mL (hip replacement patients, CSF; oral, 120 mg at 0 h and 24 h, subgroup).
For CC1(C)C(/C=C/C2=C(Oc3ccc(S(=O)(=O)O)cc3)C(=C/C=C3/N(CCCCS(=O)(=O)O)c4ccc(S(=O)(=O)[O-])cc4C3(C)C)/CCC2)=[N+](CCCCCC(=O)O)c2ccc(S(=O)(=O)O)cc21, the logP was -1.13 ± 0.08 (shake-flask; 1-octanol/water; room temperature).
With COc1ccc2cc3[n+](cc2c1OC)CCc1cc2c(cc1-3)OCO2 the measured concentration was 31 ± 1.85 ng/mL (rat plasma QC sample; 32 ng/mL nominal, 24 h, 23 °C, medium QC level storage stability).
For Cl.NCCc1ccc(Oc2ccc(-c3noc(-c4ccc(O)cc4)n3)cc2)cc1, “unchanged drug in faeces” read 0.42% (male Sprague Dawley rats; oral, 30 mg/kg, 0 to 48 h; relative to: dose).
CN(C)C(=N)N=C(N)N — result for “hepatocyte vacuolization score”: 0 (Sprague-Dawley rat, male, liver; oral, 1500 mg/kg, 24 h, single high dose; direction not given).
C[C@]12CC[C@@H]3c4ccc(O)cc4CC[C@H]3[C@@H]1C[C@@H](O)[C@@H]2O: “median serum concentration” 0 ng/mL (GC-MS; breast cancer women on NSAI, serum; vaginal, 0.03 mg daily, 4 h, day 28).
With COc1cc(C(F)(F)F)ccc1OC[C@@H]1[C@H]2CN(Cc3nc4ncccc4n3C)C[C@@H]12 the logP was 3.3.
CC[C@H](C)[C@@H]1NC(=O)[C@H](Cc2ccc(O)cc2)NC(=O)[C@@H](N)CSSC[C@@H](C(=O)N2CCC[C@H]2C(=O)N[C@@H](CC(C)C)C(=O)NCC(N)=O)NC(=O)[C@H](CC(N)=O)NC(=O)[C@H](CCC(N)=O)NC1=O: “AUC above baseline” 89.1 ± 51.3 pg·30 min/sample (microdialysis, radioimmunoassay; knock-out male mice lacking compound, amygdala extracellular fluid; intraperitoneal, 12 µg total, incremental area over baseline).
CCN(c1cc(-c2ccc(CN3CCOCC3)cc2)cc(C(=O)NCc2c(C)cc(C)[nH]c2=O)c1C)C1CCOCC1 has a discontinuation rate of 14.3% (Japanese patients, relapsed or refractory B-NHL; oral, 800 mg twice daily, tongue squamous cell carcinoma, not treatment related; relative to: patients).
COc1ccc(-c2oc3c(OC)c(OC)c(OC)c(OC)c3c(=O)c2OC)cc1OC — result for “tissue to peel content ratio”: 0.042% (C57BL/6 mouse, male, liver; oral, 1% w/w in diet, 6 weeks, orange peel extract diet; relative to: content in orange peel).
Under “post-preparative stability accuracy”, CC(C)=CCC[C@](C)(O[C@@H]1O[C@H](CO)[C@@H](O)[C@H](O)[C@H]1O)[C@H]1CC[C@]2(C)[C@@H]1[C@H](O)C[C@@H]1[C@@]3(C)CC[C@H](O)C(C)(C)[C@@H]3[C@@H](O[C@@H]3O[C@H](CO)[C@@H](O)[C@H](O)[C@H]3O)C[C@]12C is recorded as 95.6 ± 7.5% (rat, extracted tissue homogenate QC samples; 0.05 µg/mL, 24 h, 15 °C, autosampler).
O=C(c1cc(Cl)c(O)c(Cl)c1)N1CS(=O)(=O)c2ccccc21 gave an AUC(0-24h) of 3950 ± 415 ng·h/mL (healthy Chinese adults, fasted, plasma; oral, 4 mg single dose, day 1).
Cc1cc(Nc2cc3ncccc3c(N[C@@H]3C[C@H]4CC[C@@H](C3)N4CCC#N)n2)n[nH]1 gave a Cmax of 368 ng/mL (beagle dog, female, plasma; oral, 100 mg/kg/day, last day of 13 weeks).
The measured concentration of O=C(O)/C=C/c1ccccc1 is reported as 254 ± 5.72 ng/mL (rat plasma QC sample; 256 ng/mL nominal, 24 h, medium QC level autosampler stability).
Cc1cccc(C)c1OCC(=O)N[C@@H](Cc1ccccc1)[C@@H](O)C[C@H](Cc1ccccc1)NC(=O)[C@H](C(C)C)N1CCCNC1=O gave a particle permeability of 7.9 ± 0.2 ×10⁻⁶ cm/s (modified PAMPA Franz cell; phosphate buffer with HPMCAS; stock 5 mg/mL, 3 h, 25 °C, 254 nm particles, 300 rpm, added: 3% BSA receiver).
CCCC[C@@H]1NC(=O)[C@@H](NC(=O)[C@H](CCC(=O)O)NC(=O)CNC(=O)CN2CCN(CC(=O)O)CCN(CC(=O)O)CCN(CC(=O)O)CC2)CCCCNC(=O)C[C@@H](C(N)=O)NC(=O)[C@H](C(C)C)NC(=O)[C@@H]2CCCN2C(=O)[C@H](CCCNC(=N)N)NC(=O)CNC(=O)[C@H](Cc2c[nH]c3ccccc23)NC(=O)[C@H](CCCNC(=N)N)NC(=O)[C@@H](Cc2ccccc2)NC(=O)[C@H](Cc2c[nH]cn2)NC(=O)[C@H](CCC(=O)O)NC1=O [indium-111 labelled] gave a tissue uptake of 0.01 ± 0.01 %ID/g (normal C57 mice, brain; intravenous, 0.037 MBq, 4 h).
Cn1c(-c2ccc(C(N)=O)cc2F)nnc1C(C)(C)Oc1c(F)cc(Cl)cc1F has an AUC(0-inf) of 3150 ng·h/mL (elderly non-Japanese subjects, plasma; oral, 20 mg single dose, day 1, mean).
Under “brain uptake ratio”, COc1cc(/C=C/C(=O)CC(=O)/C=C/c2ccc(O)c(OC)c2)ccc1O is recorded as 2.21 (I-125 label; C57BL/6J mouse, cerebral cortex; intranasal vs intraperitoneal, 10 µg/mouse IN, 100 µg/mouse IP, 24 h; relative to: intranasal over intraperitoneal).
CN1CC[C@@H](NC(=O)Nc2ccc(C#N)cc2)C[C@@H]1c1nc2ccccc2[nH]1 gave a Vc/F of 3.32 L (population PK model; human cancer patients, plasma; oral, sample A kg patient).
For COc1cc(OC)c(/C=C/S(=O)(=O)Cc2ccc(OC)c(NCC(=O)O)c2)c(OC)c1, the Vss/F was 315 ± 285 L (cancer patients, phase I, plasma; oral, 560 mg twice daily, day 1 cycle 1).
CN[C@H](CC(C)C)C(=O)N[C@H]1C(=O)N[C@@H](CC(N)=O)C(=O)N[C@H]2C(=O)N[C@H]3C(=O)N[C@H](C(=O)N[C@H](C(=O)O)c4cc(O)cc(O)c4-c4cc3ccc4O)[C@H](O)c3ccc(c(Cl)c3)Oc3cc2cc(c3O[C@@H]2O[C@H](CO)[C@@H](O)[C@H](O)[C@H]2O[C@H]2C[C@](C)(N)[C@H](O)[C@H](C)O2)Oc2ccc(cc2Cl)[C@H]1O: “time above MIC” 98% (microdialysis; pig, Danish Landrace, subcutaneous adipose tissue; intravenous, 1000 mg over 100 min, 450 min dosing interval, added: 1.0 µg/mL MIC; relative to: dosing interval).
With CCCC[C@H](NC(C)=O)C(=O)N[C@H]1CCC(=O)NC[C@@H](C(=O)N[C@@H](Cc2c[nH]c3ccccc23)C(N)=O)NC(=O)[C@H](CCCNC(=N)N)NC(=O)[C@@H](Cc2ccccc2)NC(=O)[C@H](Cc2c[nH]cn2)NC1=O the AUC(0-last) was 2640 ng·h/mL (beagle dog, male, plasma; subcutaneous, 40.0 mg/kg daily, day 1).
CC(C)C[C@H]1C(=O)N2CCC[C@H]2[C@]2(O)O[C@](NC(=O)[C@@H]3C=C4c5cccc6[nH]c(Br)c(c56)C[C@H]4N(C)C3)(C(C)C)C(=O)N12: “mean residence time” 0.578 ± 0.113 h (male Sprague-Dawley rats, plasma; intravenous, 0.1 mg/kg, added: DAL 1.7 mg/kg plus HAL 0.7 mg/kg).
Under “maximum trough plasma concentration”, CCN(CC)CCNC(=O)c1c(C)[nH]c(/C=C2\C(=O)Nc3ccc(F)cc32)c1C is recorded as 86.2 ng/mL (human, plasma; oral, 20 mg/m2, day 28).
COc1ccc(-c2cc(=O)c3c(O)c(OC)c(OC)c(OC)c3o2)cc1OC — result for “tissue to peel content ratio”: 212% (C57BL/6 mouse, male, feces; oral, 1% w/w in diet, 6 weeks, orange peel extract diet; relative to: content in orange peel).
The AUC(0-24) ratio of Oc1ncnc2[nH]ncc12 is reported as 102% (human, male, plasma; oral, 10 mg, added: allopurinol 300 mg; relative to: combination over alone).
Cc1nc2cccc(OCC(C)(C)C(=O)NC(C)C)c2c(N)c1C(=O)O has an AUC(0-t) of 176 ng·h/mL (male Sprague-Dawley rat, plasma; oral, 100 mg/kg, single dose).
With CC(C)[C@@H](CS(=O)(=O)C(C)C)N1C(=O)[C@@](C)(CC(=O)O)C[C@H](c2cccc(Cl)c2)[C@H]1c1ccc(Cl)cc1 the AUC(0-24) was 1790 ng·h/mL (healthy human; oral, 60 mg single dose, new tablet, fed).
COc1cccc(N2CCN(C3=Nc4c(F)cccc4[C@H](CC(=O)O)N3c3cc(C(F)(F)F)ccc3OC)CC2)c1 gave a terminal half-life of 1080 min (healthy women, plasma; intravenous, 240 mg once daily, day 14, mean excluding one outlier subject).
The dose-normalized AUC(0-t) of [2H]C([2H])([2H])Oc1cc2c(cc1OC([2H])([2H])[2H])C1CC(=O)C(CC(C)C)CN1CC2 (centres unmarked) is reported as 5.2 ng·h/mL (item: deuterated β-HTBZ; healthy human volunteers, plasma; oral, 12 mg single dose, standard meal).
CCC[C@@]1(CCc2ccccc2)CC(O)=C([C@H](CC)c2cccc(NS(=O)(=O)c3ccc(C(F)(F)F)cn3)c2)C(=O)O1 has an AUC(0-inf) of 4870 ng·h/mL (male Sprague-Dawley rat, plasma; intravenous, 1 mg/kg).
CC(=O)N[C@@H](CCCCN)C(=O)N[C@@H](CCCCN)C(=O)N[C@@H](CCCNC(=N)N)C(=O)N[C@@H](Cc1ccc(O)cc1)C(=O)N[C@@H](CC(=O)O)C(=O)N[C@@H](CCCNC(=N)N)C(=O)N[C@@H](CCC(=O)O)C(=O)N[C@@H](Cc1ccccc1)C(=O)N[C@@H](CC(C)C)C(=O)N[C@@H](CC(C)C)C(=O)NCC(=O)N[C@@H](Cc1ccccc1)C(=O)N[C@@H](CCC(N)=O)C(=O)N[C@@H](Cc1ccccc1)C(N)=O gave a helicity of 2.5% (CD spectroscopy; sodium phosphate buffer; 25 to 100 µM, pH 7.4, 25 °C).

Excerpt of the above:
The AUC(0-48 h) of Cc1ccc(-c2ncc(Cl)cc2-c2ccc(S(C)(=O)=O)cc2)cn1 is reported as 2900 ng·h/mL (hip replacement patients, CSF; oral, 120 mg at 0 h and 24 h, subgroup).
Cc1cc(Nc2cc3ncccc3c(N[C@@H]3C[C@H]4CC[C@@H](C3)N4CCC#N)n2)n[nH]1 gave a Cmax of 368 ng/mL (beagle dog, female, plasma; oral, 100 mg/kg/day, last day of 13 weeks).
